# Assay results of several laboratories.
# Lines come from different studies, so protocols differ.
# Target: Sodium-dependent dopamine transporter (Slc6a3, Rattus norvegicus, UniProt P23977)
# UniProt P23977, sequence (whole entry, looked up): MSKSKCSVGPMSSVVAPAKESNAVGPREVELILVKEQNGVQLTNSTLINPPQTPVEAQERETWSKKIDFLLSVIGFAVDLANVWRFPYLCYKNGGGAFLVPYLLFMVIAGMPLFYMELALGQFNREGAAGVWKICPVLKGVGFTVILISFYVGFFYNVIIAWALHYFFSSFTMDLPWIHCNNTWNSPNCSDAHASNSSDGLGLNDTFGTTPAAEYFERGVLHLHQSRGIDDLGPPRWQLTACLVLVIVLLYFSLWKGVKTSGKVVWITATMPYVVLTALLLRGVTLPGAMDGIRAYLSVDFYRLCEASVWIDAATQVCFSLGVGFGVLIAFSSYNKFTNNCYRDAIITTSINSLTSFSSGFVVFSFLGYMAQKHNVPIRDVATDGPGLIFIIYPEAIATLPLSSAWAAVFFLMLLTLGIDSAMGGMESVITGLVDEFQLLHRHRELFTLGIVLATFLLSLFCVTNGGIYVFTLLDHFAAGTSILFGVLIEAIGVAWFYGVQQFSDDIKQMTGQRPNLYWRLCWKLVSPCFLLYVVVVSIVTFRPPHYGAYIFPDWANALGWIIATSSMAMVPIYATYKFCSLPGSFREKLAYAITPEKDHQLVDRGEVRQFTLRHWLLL
SMILES,assay,test system,setting,how to read,endpoint,value
O[C@@H](CN1CC[C@H](CCOC(c2ccccc2)c2ccccc2)[C@@H](O)C1)c1ccc(F)cc1,"dopamine uptake, inhibitor",rat striatum,with: [3H]dopamine,,Ki,2.44 nM
CNC(C)C(=O)c1ccc(Cl)cc1 (centres unmarked),substrate release,rat brain synaptosomes,,reference: SERT EC50 over target EC50,selectivity ratio,3.4
CCCC(NCC)C(=O)c1ccc2c(c1)OCO2 (centres unmarked),dopamine uptake,rat brain synaptosomes,,"reference: SERT IC50 over DAT IC50, higher = DAT selective",selectivity ratio,10.4
CC(N)Cc1ccc2c(c1)OCO2 (racemic),"[3H]MPP+ release, releaser",rat brain synaptosomes,,"reference: DAT over NET, higher = more DAT-selective",selectivity ratio,0.43
CNC(C)C(=O)c1ccc(C(F)(F)F)cc1 (centres unmarked),substrate release,rat brain synaptosomes,,reference: SERT EC50 over target EC50,selectivity ratio,0.07
Cc1ccc([C@H]2OC(N)=N[C@H]2C)cc1 (relative stereo),releaser,rat brain synaptosomes,,reference: DAT over SERT,selectivity ratio,4.3
CC(N)Cc1ccc2occc2c1 (centres unmarked),"[3H]MPP+ release, releaser",rat brain synaptosomes,,"reference: DAT over SERT, higher = more DAT-selective",selectivity ratio,0.61
O[C@H](CN1CC[C@H](CCOC(c2ccccc2)c2ccccc2)[C@@H](O)C1)c1ccccc1,"dopamine uptake, inhibitor",rat striatum,with: [3H]dopamine,,Ki,1.06 nM

# Repeated from above:
SMILES,assay,test system,setting,how to read,endpoint,value
O[C@H](CN1CC[C@H](CCOC(c2ccccc2)c2ccccc2)[C@@H](O)C1)c1ccccc1,"dopamine uptake, inhibitor",rat striatum,with: [3H]dopamine,,Ki,1.06 nM
